{"data": "Measured values collected from several papers", "note": "Every numbered part comes from another study and shows a few of its results, in no order.", "chain of UniProt O75716 (whole entry, looked up)": "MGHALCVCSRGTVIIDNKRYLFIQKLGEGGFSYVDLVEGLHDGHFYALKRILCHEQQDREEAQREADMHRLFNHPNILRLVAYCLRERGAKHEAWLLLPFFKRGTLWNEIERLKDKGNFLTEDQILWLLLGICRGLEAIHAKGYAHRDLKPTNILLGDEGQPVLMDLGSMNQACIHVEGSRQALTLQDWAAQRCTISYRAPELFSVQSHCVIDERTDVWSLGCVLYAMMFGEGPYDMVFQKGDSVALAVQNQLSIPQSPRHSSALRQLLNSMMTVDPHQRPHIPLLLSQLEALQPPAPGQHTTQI", "chain of UniProt P00519 (whole entry, looked up)": "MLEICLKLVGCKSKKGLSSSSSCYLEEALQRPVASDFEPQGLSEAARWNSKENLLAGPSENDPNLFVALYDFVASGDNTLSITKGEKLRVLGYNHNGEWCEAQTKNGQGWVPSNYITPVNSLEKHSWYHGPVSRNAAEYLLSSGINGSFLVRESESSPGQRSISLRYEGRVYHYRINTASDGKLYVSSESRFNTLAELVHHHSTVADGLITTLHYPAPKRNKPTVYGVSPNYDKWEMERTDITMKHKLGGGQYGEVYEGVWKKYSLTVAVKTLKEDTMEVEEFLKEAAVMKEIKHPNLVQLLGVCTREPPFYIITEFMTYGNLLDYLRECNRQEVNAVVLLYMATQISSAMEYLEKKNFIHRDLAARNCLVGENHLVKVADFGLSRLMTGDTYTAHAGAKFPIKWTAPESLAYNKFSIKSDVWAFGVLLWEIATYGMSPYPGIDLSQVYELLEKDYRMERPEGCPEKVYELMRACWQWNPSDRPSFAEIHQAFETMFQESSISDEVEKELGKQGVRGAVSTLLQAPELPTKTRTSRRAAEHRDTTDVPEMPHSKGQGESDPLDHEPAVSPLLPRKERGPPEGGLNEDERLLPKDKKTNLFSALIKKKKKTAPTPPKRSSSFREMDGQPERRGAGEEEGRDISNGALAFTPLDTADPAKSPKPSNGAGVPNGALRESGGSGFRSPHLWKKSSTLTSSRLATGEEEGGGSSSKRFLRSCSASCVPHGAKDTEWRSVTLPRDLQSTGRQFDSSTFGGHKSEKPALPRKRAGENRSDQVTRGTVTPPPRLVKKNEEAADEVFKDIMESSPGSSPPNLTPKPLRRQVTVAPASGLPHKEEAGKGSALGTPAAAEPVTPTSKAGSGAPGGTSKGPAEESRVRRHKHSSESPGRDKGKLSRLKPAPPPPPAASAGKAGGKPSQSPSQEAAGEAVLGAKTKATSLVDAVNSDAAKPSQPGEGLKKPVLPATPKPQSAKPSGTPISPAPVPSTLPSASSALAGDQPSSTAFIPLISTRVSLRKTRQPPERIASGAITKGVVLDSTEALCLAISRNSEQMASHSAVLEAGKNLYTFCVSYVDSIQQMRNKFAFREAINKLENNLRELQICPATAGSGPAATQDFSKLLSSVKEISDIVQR", "chain of UniProt Q9UK32 (whole entry, looked up)": "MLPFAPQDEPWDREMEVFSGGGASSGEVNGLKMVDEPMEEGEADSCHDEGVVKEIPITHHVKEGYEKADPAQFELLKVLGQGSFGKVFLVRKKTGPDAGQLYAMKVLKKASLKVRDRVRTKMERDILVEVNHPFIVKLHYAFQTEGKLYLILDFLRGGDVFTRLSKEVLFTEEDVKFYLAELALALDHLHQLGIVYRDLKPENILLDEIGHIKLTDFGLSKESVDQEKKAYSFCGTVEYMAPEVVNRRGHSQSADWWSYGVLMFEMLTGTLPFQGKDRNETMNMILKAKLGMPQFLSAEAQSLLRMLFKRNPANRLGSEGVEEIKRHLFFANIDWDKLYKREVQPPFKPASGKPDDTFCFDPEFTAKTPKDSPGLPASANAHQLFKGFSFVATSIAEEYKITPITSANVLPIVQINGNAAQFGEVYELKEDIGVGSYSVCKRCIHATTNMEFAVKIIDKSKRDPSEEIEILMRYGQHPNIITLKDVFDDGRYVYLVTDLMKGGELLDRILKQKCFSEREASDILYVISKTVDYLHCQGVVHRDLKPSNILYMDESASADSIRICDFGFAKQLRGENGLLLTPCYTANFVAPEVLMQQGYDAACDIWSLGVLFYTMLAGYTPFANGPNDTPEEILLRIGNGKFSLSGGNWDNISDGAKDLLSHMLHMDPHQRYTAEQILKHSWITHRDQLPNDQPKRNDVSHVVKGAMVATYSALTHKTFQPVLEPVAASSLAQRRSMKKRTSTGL", "chain of UniProt Q56UN5 (whole entry, looked up)": "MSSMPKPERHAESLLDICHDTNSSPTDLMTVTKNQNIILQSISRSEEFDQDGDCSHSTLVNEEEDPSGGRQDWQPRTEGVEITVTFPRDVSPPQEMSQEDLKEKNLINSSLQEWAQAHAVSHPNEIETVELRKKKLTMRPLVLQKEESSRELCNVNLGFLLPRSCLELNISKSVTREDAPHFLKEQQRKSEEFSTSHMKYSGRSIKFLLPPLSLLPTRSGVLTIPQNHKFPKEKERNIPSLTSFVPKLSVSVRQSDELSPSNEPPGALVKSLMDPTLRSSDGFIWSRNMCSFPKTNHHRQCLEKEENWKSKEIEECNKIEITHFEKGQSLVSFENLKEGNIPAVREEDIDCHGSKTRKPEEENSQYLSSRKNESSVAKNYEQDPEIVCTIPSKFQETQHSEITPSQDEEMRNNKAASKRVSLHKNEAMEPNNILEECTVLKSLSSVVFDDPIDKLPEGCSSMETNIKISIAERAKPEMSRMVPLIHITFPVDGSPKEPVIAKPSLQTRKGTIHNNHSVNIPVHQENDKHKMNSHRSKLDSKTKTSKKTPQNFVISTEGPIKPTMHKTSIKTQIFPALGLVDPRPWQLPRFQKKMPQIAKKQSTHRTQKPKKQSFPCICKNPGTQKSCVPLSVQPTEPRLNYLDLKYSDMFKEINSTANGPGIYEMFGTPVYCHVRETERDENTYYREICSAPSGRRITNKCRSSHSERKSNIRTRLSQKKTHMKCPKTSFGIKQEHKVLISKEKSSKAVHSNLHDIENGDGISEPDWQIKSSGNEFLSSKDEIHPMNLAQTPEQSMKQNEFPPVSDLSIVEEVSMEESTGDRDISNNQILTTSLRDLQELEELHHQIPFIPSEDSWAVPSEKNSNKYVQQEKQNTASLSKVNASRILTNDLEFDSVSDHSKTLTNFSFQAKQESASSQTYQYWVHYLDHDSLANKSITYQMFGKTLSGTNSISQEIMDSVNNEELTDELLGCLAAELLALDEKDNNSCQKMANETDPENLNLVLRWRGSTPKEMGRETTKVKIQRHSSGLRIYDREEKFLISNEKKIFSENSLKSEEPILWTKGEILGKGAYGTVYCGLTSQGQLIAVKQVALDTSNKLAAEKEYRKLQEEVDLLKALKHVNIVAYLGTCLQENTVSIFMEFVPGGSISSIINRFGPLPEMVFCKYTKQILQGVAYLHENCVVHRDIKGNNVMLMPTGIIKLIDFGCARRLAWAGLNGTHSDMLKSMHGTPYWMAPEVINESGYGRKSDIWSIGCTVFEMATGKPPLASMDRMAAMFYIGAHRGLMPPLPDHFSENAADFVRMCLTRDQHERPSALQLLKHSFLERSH", "chain of UniProt O75582 (whole entry, looked up)": "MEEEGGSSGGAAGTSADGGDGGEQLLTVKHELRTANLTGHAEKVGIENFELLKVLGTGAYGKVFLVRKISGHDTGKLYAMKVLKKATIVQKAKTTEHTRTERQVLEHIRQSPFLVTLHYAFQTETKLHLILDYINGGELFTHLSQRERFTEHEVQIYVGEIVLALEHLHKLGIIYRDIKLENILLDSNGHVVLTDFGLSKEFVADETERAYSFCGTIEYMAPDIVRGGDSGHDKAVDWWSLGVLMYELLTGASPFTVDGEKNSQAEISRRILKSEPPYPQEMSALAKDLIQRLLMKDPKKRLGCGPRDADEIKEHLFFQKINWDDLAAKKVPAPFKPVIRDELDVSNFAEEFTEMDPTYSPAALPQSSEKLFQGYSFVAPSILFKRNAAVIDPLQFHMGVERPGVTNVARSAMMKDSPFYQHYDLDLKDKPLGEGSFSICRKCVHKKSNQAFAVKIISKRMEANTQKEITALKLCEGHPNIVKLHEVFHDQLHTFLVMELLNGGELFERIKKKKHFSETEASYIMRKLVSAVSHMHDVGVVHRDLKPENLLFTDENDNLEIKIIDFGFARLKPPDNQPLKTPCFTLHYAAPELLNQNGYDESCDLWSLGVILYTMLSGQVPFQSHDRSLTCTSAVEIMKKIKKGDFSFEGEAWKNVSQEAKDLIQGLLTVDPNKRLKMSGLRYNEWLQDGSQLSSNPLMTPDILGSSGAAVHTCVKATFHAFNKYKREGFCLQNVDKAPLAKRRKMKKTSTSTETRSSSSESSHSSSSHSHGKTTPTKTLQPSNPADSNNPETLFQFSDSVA", "chain of UniProt Q86YV6 (whole entry, looked up)": "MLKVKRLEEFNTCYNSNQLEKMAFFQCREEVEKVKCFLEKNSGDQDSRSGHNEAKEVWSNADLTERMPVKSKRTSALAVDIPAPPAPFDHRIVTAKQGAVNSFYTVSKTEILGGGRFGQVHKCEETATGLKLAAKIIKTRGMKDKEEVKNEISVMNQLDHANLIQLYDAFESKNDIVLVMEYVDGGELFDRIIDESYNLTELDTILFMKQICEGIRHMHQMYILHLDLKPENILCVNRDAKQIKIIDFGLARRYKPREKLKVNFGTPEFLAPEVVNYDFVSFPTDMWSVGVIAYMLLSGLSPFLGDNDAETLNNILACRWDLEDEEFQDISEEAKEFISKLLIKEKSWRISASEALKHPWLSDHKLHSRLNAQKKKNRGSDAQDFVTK"}
{"data": "Set 1", "SMILES": "CSc1cccnc1N1CCN(Cc2nc3ccccc3[nH]2)CC1", "method": "competition with immobilised ligand", "tested at": "1 µM"}
{"target": "SIK2 (Homo sapiens, UniProt Q9H0K1)", "test": "cell-free assay", "remaining binding [%]": 100}
{"target": "CDKL1 (Homo sapiens, UniProt Q00532)", "test": "binding", "remaining binding [%]": 100}
{"target": "MELK (Homo sapiens, UniProt Q14680)", "test": "cell-free assay", "remaining binding [%]": 46}
{"target": "MYLK4 (Homo sapiens, UniProt Q86YV6)", "test": "cell-free assay", "remaining binding [%]": 100}
{"target": "MET (Homo sapiens, UniProt P08581, Y1235D)", "test": "cell-free assay", "remaining binding [%]": 89}
{"target": "EGFR (Homo sapiens, UniProt P00533, del747-750/T751S)", "test": "cell-free assay", "remaining binding [%]": 82}
{"target": "MAP3K19 (Homo sapiens, UniProt Q56UN5)", "test": "cell-free assay", "remaining binding [%]": 72}
{"target": "STK36 (Homo sapiens, UniProt Q9NRP7)", "test": "cell-free assay", "remaining binding [%]": 97}
{"target": "STK11 (Homo sapiens, UniProt Q15831)", "test": "cell-free assay", "remaining binding [%]": 100}
{"target": "STK16 (Homo sapiens, UniProt O75716)", "test": "cell-free assay", "remaining binding [%]": 100}
{"target": "CSNK1A1L (Homo sapiens, UniProt Q8N752)", "test": "cell-free assay", "remaining binding [%]": 100}
{"target": "CHUK (Homo sapiens, UniProt O15111)", "test": "cell-free assay", "remaining binding [%]": 98}
{"target": "HCK (Homo sapiens, UniProt P08631)", "test": "cell-free assay", "remaining binding [%]": 82}
{"data": "Set 2", "target": "Microphthalmia-associated transcription factor, full length (MITF, Homo sapiens, UniProt O75030-10, residues 1-413)", "method": "protein-binding microarray", "molecule type": "hairpin DNA", "sample": "in vitro", "tested at": "not given", "notes": "whole hairpin DNA, median over replicate spots", "relative to": "not given", "direction": "higher = stronger binding"}
{"Strand": "GAGGCCTAGCACGTCGTGCCTCCTGGCACGACGTGCTAGGCCTCACACTC (5mC at 15)", "median fluorescence [a.u.]": 5770}
{"Strand": "CACTTAGCACGTGACTTTGGTCCTCCAAAGTCACGTGCTAAGTGACACTC (5mC at 15)", "median fluorescence [a.u.]": 29000}
{"Strand": "CACTTCGCACGTGATTTTGGTCCTCCAAAATCACGTGCGAAGTGACACTC (5mC at 6)", "median fluorescence [a.u.]": 26000}
{"Strand": "GAGGCCTAGCACGTCGTGCCTCCTGGCACGACGTGCTAGGCCTCACACTC (5mC at 29)", "median fluorescence [a.u.]": 5860}
{"Strand": "CACTTAACACGTGATTTTGGTCCTCCAAAATCACGTGTTAAGTGACACTC", "median fluorescence [a.u.]": 23900}
{"Strand": "CACTAAGCACGTGATTTTGGTCCTCCAAAATCACGTGCTTAGTGACACTC", "median fluorescence [a.u.]": 26400}
{"Strand": "GAGGCCCGGCACGTGCTGCCTCCTGGCAGCACGTGCCGGGCCTCACACTC", "median fluorescence [a.u.]": 24300}
{"Strand": "GAGGCCTACCACGTGCTGCCTCCTGGCAGCACGTGGTAGGCCTCACACTC", "median fluorescence [a.u.]": 22800}
{"data": "Set 3", "target": "RING finger protein unkempt homolog, zinc fingers 1-6, GST-SBP tag (UNK, Homo sapiens, UniProt Q9C0B0, residues 30-357)", "method": "RNA Bind-n-Seq", "molecule type": "RNA", "sample": "in vitro", "tested at": "not given", "notes": "RNA with constant flanks, ends assumed", "relative to": "input RNA pool", "direction": "higher = stronger binding", "all sequences stand within": "GGGAGUUCUACAGUCCGACGAUC … CAACAGAGGAUUGAGCAUCA", "chain of UniProt Q9C0B0 (30-357, looked up)": "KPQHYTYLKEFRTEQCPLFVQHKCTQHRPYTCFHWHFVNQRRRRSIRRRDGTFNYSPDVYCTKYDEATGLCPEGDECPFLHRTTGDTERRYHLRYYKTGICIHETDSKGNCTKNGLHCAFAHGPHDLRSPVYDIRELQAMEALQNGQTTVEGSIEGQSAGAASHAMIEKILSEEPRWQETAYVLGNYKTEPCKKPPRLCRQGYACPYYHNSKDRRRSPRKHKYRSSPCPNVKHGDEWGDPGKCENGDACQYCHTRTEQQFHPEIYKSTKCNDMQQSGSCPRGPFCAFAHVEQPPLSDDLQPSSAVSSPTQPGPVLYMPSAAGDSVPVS"}
{"Strand": "UUAAUGUUCUUAAUAAAGUGUUCUUGGAGUUUAACCUAGCAGCGGAUGGCUUUCUUCCGCUCCGCCCAGUUUCCAGGGAAGCAUUGUUUUUUCCAGGCUGUAAAAUGGCAGAAUCUCCUG", "bound/input enrichment": "0.283 ratio"}
{"Strand": "UUUCAUCUUGAGGUGGCCAAUAUGGGAUGUGGAAUUUUUACAUGAGUUACACAUGUUUGGCACCGUACUUUUGGUACAUUGUGGCUUCAGAAGGGCCAGUGUUAAAACUGCUUCCAUGUC", "bound/input enrichment": "0.136 ratio"}
{"Strand": "GCUGGCUUCUUUGGACUCCCUAUAUGAUUGAUGAUGUGAAAACCUAAAUUACUUGCAGCACCGUAUUACUUCUUUGAUGUUCUCAUUAGCAUAAUGUUAUUUUUGAAAAGGAAAGAUACU", "bound/input enrichment": "1.61 ratio"}
{"Strand": "UAAGUAUGAAAUGGUGUAUGCCAGUACACAUUCCUCUUCCAGUUCUCCUAAGUGCUGACCACCCGGUCAGUCUGGGACACAUCAGUGUAUGGCUAGGCUGGCUAGCUUUAGCACAGUGGA", "bound/input enrichment": "0.165 ratio"}
{"Strand": "GUUCUUAAAGAUGUGGGAUUGAAAAAAGAAGAUAUUGCAAUGUGGGAAGUAAAUGAAGCCUUCCGUCUGGUUGUACUAGCAAACAUUAAAAUGUUGGAGAUUGAUCCCCAAAAAGUGAAU", "bound/input enrichment": "0.315 ratio"}
{"Strand": "CCAGAAGCUGUUGAAGUCUUGCUGAAUUAUGCAUACACGGCUCAGUUGAAAGCUGAUAAGGAAUCCGUAAAAGAUGUUUAUUCUGCAGCCAAGAAGCUGAAGAUGGACCGAGUCAAGCAG", "bound/input enrichment": "0.105 ratio"}
{"Strand": "GUUAGCCAAUCAUUGCAGCAUUACUUAGAGCUCGGAAGGCAAGAGCUUUUUAAGAUUCUGCACCGUAUUUUGUUAAAUGGCGAAACCCGUGAGGCUGCUCUCAGUUACAUGGCGGCUGUC", "bound/input enrichment": "0.489 ratio"}
{"Strand": "GAUGUAGUAGUCAACAUUUUUAUUAACAGUUUUGGAUCCAUUCAAGAAACAACAAUGGACUACCGAGUUAACAUCUUCCUGAGACAAAAAUGGAAUGACCCCAGGCUGAAGCUCCCCAGU", "bound/input enrichment": "0.52 ratio"}
{"data": "Set 4", "Compound": "O=C1Nc2ccc(Br)cc2/C1=C/c1cc2c([nH]1)CCCC2", "read-out": "enzyme activity", "action": "inhibitor", "tested at": "0.5 µM", "relative to": "control"}
{"target": "STK16 (Homo sapiens, UniProt O75716)", "remaining activity [%]": 94.3}
{"target": "TSSK2 (Homo sapiens, UniProt Q96PF2)", "remaining activity [%]": 89.8}
{"target": "Cyclin-dependent kinase 4, with cyclin D3 (CDK4, Homo sapiens, UniProt P11802)", "remaining activity [%]": 99.8}
{"target": "PDPK1 (Homo sapiens, UniProt O15530)", "remaining activity [%]": 95.3}
{"target": "CAMK2B (Homo sapiens, UniProt Q13554)", "remaining activity [%]": 85.8}
{"target": "DYRK3 (Homo sapiens, UniProt O43781)", "remaining activity [%]": 94}
{"target": "EPHB4 (Homo sapiens, UniProt P54760)", "remaining activity [%]": 88.6}
{"target": "AXL (Homo sapiens, UniProt P30530)", "remaining activity [%]": 90}
{"target": "EPHB1 (Homo sapiens, UniProt P54762)", "remaining activity [%]": 85.5}
{"target": "ABL1 (Homo sapiens, UniProt P00519)", "remaining activity [%]": 91.8}
{"target": "RPS6KA6 (Homo sapiens, UniProt Q9UK32)", "remaining activity [%]": 78.6}
{"target": "RPS6KA5 (Homo sapiens, UniProt O75582)", "remaining activity [%]": 90.3}
{"target": "MAP4K4 (Homo sapiens, UniProt O95819)", "remaining activity [%]": 6.84}
{"target": "Cyclin-dependent kinase 1, with cyclin B (CDK1, Homo sapiens, UniProt P06493)", "remaining activity [%]": 98.5}
{"target": "BLK (Homo sapiens, UniProt P51451)", "remaining activity [%]": 74.4}
